Measured values of several laboratories.
Several values in a cell are separate wells, animals, samples, runs or records. ± gives the spread as reported.

`CO[C@@H]1[C@H](N(C)C(=O)c2ccccc2)C[C@H]2O[C@]1(C)n1c3ccccc3c3c4c(c5c6ccccc6n2c5c31)C(=O)NC4` has an ATP level of 105% (iCell Cardiomyocytes (hiPSC-derived); CellTiter-Glo; concentration not given, 24 h; baseline: control).
With `Cc1cccc(-c2[nH]c(CNc3ccccc3F)nc2-c2ccc3ncnn3c2)n1` the viability was 13% and 12% and 16% (MM1.S pomalidomide-resistant; XTT; 5 µM).
The cell index of `Cc1[nH]c(/C=C2\C(=O)Nc3ccc(F)cc32)c(C)c1C(=O)NC[C@H](O)CN1CCOCC1` is reported as 106% (iCell Cardiomyocytes (hiPSC-derived); cellular impedance; concentration not given, 24 h; baseline: control).
For `CN(C)C(=O)c1cc2cnc(Nc3ccc(N4CCNCC4)cn3)nc2n1C1CCCC1`, the maximum inhibition was 79.1% (MCF7/luciferase, wild type; cell proliferation).
`Cc1nc(Nc2ncc(C(=O)Nc3c(C)cccc3Cl)s2)cc(N2CCN(CCO)CC2)n1` gave a beat amplitude of 99.6% (iCell Cardiomyocytes (hiPSC-derived); xCELLigence Cardio impedance; concentration not given, 2 h; baseline: control).
`CCCN1CCN(c2ccc3[nH]c(-c4ccc5[nH]c(-c6cc(OC)c(OC)c(OC)c6)nc5c4)nc3c2)CC1` gave a growth percent of 83.2% (BT-549; SRB; 10 µM, 48 h).
For `Cn1cncc1C1=CN(c2ncnc3[nH]cnc23)CCS1`, the TGI was > 200 µM (NCI/ADR-RES; ovarian cancer cell line).
With `CSc1nc(-c2ccc(Cl)cc2)c2c(NC(=O)c3ccccc3)nnc-2[nH]1` the cell growth was 100% (NCI-H226; SRB; 10 µM, NCI60 single-dose screen; baseline: untreated).
For `Cc1ccc(-n2nc(C(C)(C)C)cc2NC(=O)Nc2ccc(OCCN3CCOCC3)c3ccccc23)cc1`, the beat rate was 101% (iCell Cardiomyocytes (hiPSC-derived); xCELLigence Cardio impedance; concentration not given, 2 h; baseline: control).
Under “mRNA level, LS mean”, `c1ccc2[nH]ccc2c1` is recorded as 139 counts per million (HCT-8; RNA-seq, item: CHST3; concentration not given).
Under “log2 fold change”, `Cc1cc(Nc2ncc(Cl)c(Nc3ccccc3S(=O)(=O)C(C)C)n2)c(OC(C)C)cc1C1CCNCC1` is recorded as -3.27 (CLB-GE; phosphoproteomics LC-MS/MS, item: AKT1 phosphorylation; 200 nM, 60 min; baseline: untreated).
`COc1cccc2c1C(=O)c1c(O)c3c(c(O)c1C2=O)C[C@@](O)(C(=O)CO)C[C@@H]3O[C@H]1C[C@H](N)[C@H](O)[C@H](C)O1` has a selectivity index of 1.1 (A549 and Vero; MTT; baseline: CC50 Vero over EC50 A549).
`CN1CCN(c2ccc3nc(-c4c(N)c5c(F)cccc5[nH]c4=O)[nH]c3c2)CC1` has a beat amplitude of 102% (iCell Cardiomyocytes (hiPSC-derived); xCELLigence Cardio impedance; concentration not given, 2 h; baseline: control).
With `CC#CC(=O)N1CCC[C@H]1c1nc(-c2ccc(C(=O)Nc3ccccn3)cc2)c2c(N)nccn12` the maximum inhibition was 87.2% (Ramos; calcium flux, FLIPR; 1 h preincubation).
`COc1cccc2c1C(=O)c1c(O)c3c(c(O)c1C2=O)C[C@@](O)(C(=O)CO)C[C@@H]3O[C@H]1C[C@H](N)[C@H](O)[C@H](C)O1`: “representative mode point of departure” 0.0324 µM (HepG2; protein level, item: PERK; 24 h).
The sarcomere length of `CC(C)NCC(O)c1ccc(O)c(O)c1` (stereo not shown) is reported as 1.8 µm (mouse ventricular cardiomyocytes; dose not given, 0.251 s).
For `N[C@@H](CCSC[C@H](N)C(=O)O)C(=O)O`, “z-scored log2 fold change” read 0.413 (binding, equilibrium dialysis LC-MS; 5 µM, thermostabilized A2AR-BRIL construct; baseline: no-protein control, direction not given).
`Cc1nc2ccc(OCc3ccc(C(F)(F)F)cc3)cc2[nH]1` gave an Emax of 74% (sample A patient iPSC NPCs; cell protection, MTS; up to 100 µM, 24 h).
For `CC(C)C[C@@H](C=O)NC(=O)[C@H](CC(C)C)NC(=O)[C@H](CC(C)C)NC(=O)OCc1ccccc1`, the FLuc activity was 1.26 (HEK293; item: CD4 signal peptide-FLuc reporter; concentration not given, 4 h, time-course chase, unit not given, together with: cycloheximide; baseline: untreated).
Under “relative cell number”, `Cn1cc(-c2ccc(F)c(C(F)(F)F)c2)nc1C1CCN(c2ncnc3[nH]ncc23)CC1` is recorded as 97.4% (SK-OV-3; ATP; 0.1 µM, 4 days, 3D gellan gum culture; baseline: untreated).
For `COc1ccc2c(N(C)c3ccc(/C(C)=N/OCCN)cc3)c3c(Cl)coc3nc2c1`, secreted PSA read “increased” (LNCaP C-81; immunoblot; 1 µM, 72 h, steroid-reduced medium).
Under BrdU incorporation, `CC(C)(C)c1cnc(CSc2cnc(NC(=O)C3CCN(C(=O)CCCCCCCN4Cc5cc6c(cc5C4)C(=O)N(C4CCC(=O)NC4=O)C6=O)CC3)s2)o1` (stereo not shown) is recorded as “decreased” (TC-71; DNA replication; 50 nM, 24 h).
`C[C@@H]1CN(C(=O)c2ccc(NC(=O)c3cc(O[C@H](C)c4c(Cl)ccc(F)c4Cl)c(N)nn3)cc2)C[C@H](C)N1` has an Emax of 100% (Ba/F3 EML4-ALK variant 1 S1206F; cell viability).
`Cn1cc(-n2cnc3c(NCc4nc5cc(Cl)c(Cl)cc5[nH]4)nc(N4CCOCC4)nc32)cn1` has a mRNA level of 0.952 and 0.824 and 0.905 (MDA-MB-231; qRT-PCR, item: FANCD2; 0.05 µM, 6 h, unit not given; baseline: DMSO).
The inhibition of `COc1ccc2c(Cc3cccc(-c4ccccc4)c3)ncnc2c1` is reported as 32% (A549; mitochondrial oxygen consumption, Seahorse XF96; 10 µM).
Under “normalized enrichment score”, `O=c1[nH]nc(OCCCc2ccc(Cl)cc2)c(NCc2cccnc2)c1Br` is recorded as -0.868 (HEK-293T; RNA-seq GSEA, item: HALLMARK_PANCREAS_BETA_CELLS; concentration not given; direction not given).
Under “relative cell number”, `O=C(O)c1ccc(-c2c[nH]c3ncc(-c4ccccc4)cc23)cc1C1CCCC1` is recorded as 110% (SK-OV-3; ATP; 1 µM, 4 days, 3D U-bottom low-attachment; baseline: untreated).
The normalized response of `CCc1c(-c2ccccc2)c(-c2ccccc2)nn1-c1ccccc1-c1cccc(OCC(=O)O)c1` is reported as 74.8% and 83.6% and 94.1% and 78.8% and 99.7% and 70% (mouse bone marrow macrophages; osteoclast differentiation, inhibitor, TRAP staining; 0.1 µM, together with: M-CSF and RANKL).
The EC50 of `COc1cnc2cccc(N3CCc4c(cc(Cn5ccnc5C)cc4-c4cn(C)nc4C(F)(F)F)C3=O)c2c1` is reported as 13.6 µM (HCC15; cell growth, inhibitor; 120 h).
`Cc1cc(NS(=O)(=O)c2ccc(NC(=O)/C(C#N)=C/c3ccc(N4CCCCC4)cc3)cc2)no1` — result for “mRNA level increase”: 5.9 fold (HCT-116; qRT-PCR, item: Bax; concentration not given; baseline: untreated).
For `Clc1ccc(C2(c3ccc(-c4cn[nH]c4)cc3)CCNCC2)cc1`, “relative cell number” read 71.9% (SK-OV-3; ATP; 3D gellan gum culture; 0.1 µM, 4 days; baseline: untreated).
The selectivity ratio of `COc1ccc(NC(=S)N/N=C/c2ccc(N3CCC(O)CC3)cc2)cc1` is reported as 3.4 (BEAS-2B and A549; MTT; baseline: IC50 BEAS-2B over IC50 A549).
`O=C(/C=C/C=C/C=C/C1CCCCC1)NC1=C[C@@](O)(/C=C/C=C/C=C/C(=O)NC2=C(O)CCC2=O)[C@@H]2O[C@@H]2C1=O` has a GI50 of 25.2 µM (HCC15; cell growth, CellTiter-Glo; 78 h).
`CCC(=O)N1CCC(COCC(=O)N2CCN(c3nc(-c4cnc(N)nc4C(F)F)nc(N4CCOC[C@@H]4C)n3)CC2)CC1` has a GR50 of 267 nM (SK-OV-3; resazurin growth rate inhibition; 72 h).
`C=CC(=O)N1CCC[C@@H](c2ccc(C(N)=O)c3[nH]ccc23)C1` gave a maximum inhibition of 34.4% (Ramos; calcium flux, FLIPR; 2 h preincubation).
The inhibition of `COc1ccc(Cc2nccc3ccccc23)cc1OC` is reported as 64% (A549; mitochondrial oxygen consumption, Seahorse XF96; 10 µM).
`C[C@]12CCCN1CC1=NNC(=O)c3cc(F)cc4[nH]c2c1c34` gave an EC50 of > 10 µM (AGS gastric cancer cells; cell viability; concentration not given, together with: with temozolomide).
For `Cc1ccc(CNC(=O)Cn2cc(CSc3nc4ccccc4[nH]3)nn2)cc1`, the viability was 8.34% (MDA-MB-231; MTT; 125 ppm).
For `C=CC1=C(C)c2cc3[n-]c(cc4nc(cc5[n-]c(cc1n2)c(C)c5C=C)C(C)=C4CCC(=O)O)c(CCC(=O)O)c3C.[Zn+2]`, the fold change was 1.68 (SH-SY5Y; RNA-seq, item: CCN1 mRNA; 5 µM, 5 h; baseline: untreated cells).
With `CCn1cc(-c2cc(Cn3ccoc3=N)cc3c2CCN([C@@H](C)c2cc(OC)ccn2)C3=O)c(C(F)(F)F)n1` the EC50 was 1.17 µM (Ramos; cell growth, inhibitor; 120 h).
The beat rate of `CC1(C)CNc2cc(NC(=O)c3cccnc3NCc3ccncc3)ccc21` is reported as 101% (iCell Cardiomyocytes (hiPSC-derived); xCELLigence Cardio impedance; concentration not given, 2 h; baseline: control).
The IC50 of `C=CC(=O)N1CCC([C@@H]2CCNc3c(C(N)=O)c(-c4ccc(Oc5ccccc5)cc4)nn32)CC1` is reported as 0.00141 µM (Ramos; calcium flux, FLIPR; 4 h preincubation).
With `Cn1cc(-c2ccc3nnc(Sc4ccc5ncccc5c4)n3n2)cn1` the cell index was 99.5% (iCell Cardiomyocytes (hiPSC-derived); cellular impedance; concentration not given, 24 h; baseline: control).
Under “log2 fold change”, `Cn1cc(-c2ccc(-c3cncc(Cl)c3N3CCC4(CCNC4=O)CC3)cc2)cn1` is recorded as 1.2 (COLO 205; gene expression, microarray, item: BCL2L1 mRNA; concentration not given, 6 h; baseline: untreated cells).
With `CCn1cc(-c2cc(Cn3ccnc3)cc3c2CCN([C@H](c2cc(OC)ccn2)C2CC2)C3=O)c(C(F)(F)F)n1` the EC50 was 9.04 µM (MCAS; cell growth; 120 h).
`COc1cc(N2CCC(N3CCN(C)CC3)CC2)ccc1Nc1ncc(Cl)c(Nc2ccccc2P(C)(C)=O)n1` has an Emax of 76.2% (KARPAS-299 (NPM1-ALK); cell viability).
For `C=CC(=O)N1CCC[C@@H](n2nc(-c3ccc(Oc4ccccc4)cc3)c3c(N)ncnc32)C1`, the IC50 was 0.0061 µM (TMD8 RAC2 knockout; calcium flux, FLIPR; 1 h preincubation).
The phospho/total ratio of `CSc1cc(Oc2ccnc3[nH]c(=O)cnc23)ccc1NC(=O)Nc1cc(C(C)(C)C)nn1-c1ccccc1` is reported as 0.62 (patient-derived cells; RPPA, item: p53 pSer15; 1 µM, 4 h, mean of three patients; baseline: DMSO).
`CC(C)(C)c1cnc(CSc2cnc(NC(=O)C3CCNCC3)s2)o1` gave a beat rate of 102% (iCell Cardiomyocytes (hiPSC-derived); xCELLigence Cardio impedance; concentration not given, 2 h; baseline: control).
Under “log2 fold change”, `Nc1ncnc2c1ncn2[C@@H]1O[C@H](CO)[C@@H](O)[C@H]1O` is recorded as 2.1 and 2 and 1.1 (activated human T cells; item: inosine; 10 µM; baseline: DMSO).
Under “relative cell number”, `CCn1c(-c2nonc2N)nc2cncc(CNC3CCNCC3)c21` is recorded as 98.3% (SK-OV-3; ATP; 0.01 µM, 4 days, 3D gellan gum culture; baseline: untreated).
`O=CNc1ccccc1C(=O)O`: “z-scored log2 fold change” -0.0152 (binding, equilibrium dialysis LC-MS; 5 µM, thermostabilized A2AR-BRIL construct; baseline: no-protein control, direction not given).
`Cc1nc(NC(=O)N2CCC[C@H]2C(N)=O)sc1-c1ccnc(C(C)(C)C(F)(F)F)c1`: “Hill coefficient GR curve” 1.06 (Detroit 562; CellTiter-Glo; 120 h).
`COc1cc2c(cc1O)[C@@H](Cc1ccc(O)c(Oc3cc4c(cc3OC)CCN(C)[C@@H]4Cc3ccc(O)cc3)c1)N(C)CC2` gave an inhibition of 37.4 ± 0.5% (3T3-L1; adipocyte lipid accumulation, Nile Red staining; 20 µM).
The fibulin-3 level of `CN1CCN(c2ccc3nc(-c4c(N)c5c(F)cccc5[nH]c4=O)[nH]c3c2)CC1` is reported as -44% (ARPE-19 HiBiT fibulin-3; HiBiT luminescence; 5 µM).

Repeated from above:
`O=CNc1ccccc1C(=O)O`: “z-scored log2 fold change” -0.0152 (binding, equilibrium dialysis LC-MS; 5 µM, thermostabilized A2AR-BRIL construct; baseline: no-protein control, direction not given).
With `CCn1cc(-c2cc(Cn3ccoc3=N)cc3c2CCN([C@@H](C)c2cc(OC)ccn2)C3=O)c(C(F)(F)F)n1` the EC50 was 1.17 µM (Ramos; cell growth, inhibitor; 120 h).
`Cc1cc(NS(=O)(=O)c2ccc(NC(=O)/C(C#N)=C/c3ccc(N4CCCCC4)cc3)cc2)no1` — result for “mRNA level increase”: 5.9 fold (HCT-116; qRT-PCR, item: Bax; concentration not given; baseline: untreated).
